Assay results collected from several papers.
Parts stem from different laboratories: compare values within a part only.
Sequence of UniProt P36896 (whole entry, looked up): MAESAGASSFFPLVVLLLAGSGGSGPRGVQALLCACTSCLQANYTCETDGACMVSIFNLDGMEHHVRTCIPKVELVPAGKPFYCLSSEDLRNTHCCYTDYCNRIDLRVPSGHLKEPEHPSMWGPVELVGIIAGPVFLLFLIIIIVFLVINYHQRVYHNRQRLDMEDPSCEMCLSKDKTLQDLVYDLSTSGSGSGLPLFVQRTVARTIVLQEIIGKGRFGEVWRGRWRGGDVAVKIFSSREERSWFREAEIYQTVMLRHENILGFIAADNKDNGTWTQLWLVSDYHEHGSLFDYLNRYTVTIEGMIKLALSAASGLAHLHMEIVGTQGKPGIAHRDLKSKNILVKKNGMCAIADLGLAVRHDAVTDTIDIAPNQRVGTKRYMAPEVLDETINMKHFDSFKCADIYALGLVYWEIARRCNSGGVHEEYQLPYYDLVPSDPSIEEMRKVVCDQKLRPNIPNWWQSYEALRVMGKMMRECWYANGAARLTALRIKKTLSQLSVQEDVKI
Sequence of UniProt Q9UL54 (whole entry, looked up): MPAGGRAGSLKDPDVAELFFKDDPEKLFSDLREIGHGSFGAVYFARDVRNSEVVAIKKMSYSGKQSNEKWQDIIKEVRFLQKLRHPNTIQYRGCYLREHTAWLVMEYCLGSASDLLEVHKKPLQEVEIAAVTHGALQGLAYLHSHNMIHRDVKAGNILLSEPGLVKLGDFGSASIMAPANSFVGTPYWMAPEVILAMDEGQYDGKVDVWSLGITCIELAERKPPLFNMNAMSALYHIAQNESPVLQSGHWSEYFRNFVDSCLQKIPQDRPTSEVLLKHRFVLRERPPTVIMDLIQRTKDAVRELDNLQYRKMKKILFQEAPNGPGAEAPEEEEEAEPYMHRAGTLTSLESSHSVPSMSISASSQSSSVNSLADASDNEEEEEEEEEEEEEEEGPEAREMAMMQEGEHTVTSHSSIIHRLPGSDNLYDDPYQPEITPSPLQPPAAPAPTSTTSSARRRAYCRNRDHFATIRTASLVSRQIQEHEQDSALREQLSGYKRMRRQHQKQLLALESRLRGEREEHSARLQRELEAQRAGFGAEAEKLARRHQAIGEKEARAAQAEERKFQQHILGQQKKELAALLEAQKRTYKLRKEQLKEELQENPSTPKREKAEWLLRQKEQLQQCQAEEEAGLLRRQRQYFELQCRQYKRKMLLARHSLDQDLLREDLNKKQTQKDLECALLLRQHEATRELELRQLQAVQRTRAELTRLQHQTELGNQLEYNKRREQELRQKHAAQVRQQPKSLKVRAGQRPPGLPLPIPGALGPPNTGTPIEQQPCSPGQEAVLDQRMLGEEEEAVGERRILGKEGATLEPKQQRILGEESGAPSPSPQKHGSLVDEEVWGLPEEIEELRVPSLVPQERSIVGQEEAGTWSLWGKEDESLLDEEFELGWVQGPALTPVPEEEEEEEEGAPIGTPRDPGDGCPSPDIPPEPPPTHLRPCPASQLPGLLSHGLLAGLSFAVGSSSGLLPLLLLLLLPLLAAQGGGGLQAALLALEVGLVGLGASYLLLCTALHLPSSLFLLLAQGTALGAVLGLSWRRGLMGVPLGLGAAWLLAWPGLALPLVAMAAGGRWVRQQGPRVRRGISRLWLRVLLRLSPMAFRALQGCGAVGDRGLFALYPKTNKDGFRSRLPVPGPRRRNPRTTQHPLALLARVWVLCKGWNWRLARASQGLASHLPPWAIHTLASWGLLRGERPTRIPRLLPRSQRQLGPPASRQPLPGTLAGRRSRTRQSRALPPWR
Sequence of UniProt Q96PY6 (whole entry, looked up): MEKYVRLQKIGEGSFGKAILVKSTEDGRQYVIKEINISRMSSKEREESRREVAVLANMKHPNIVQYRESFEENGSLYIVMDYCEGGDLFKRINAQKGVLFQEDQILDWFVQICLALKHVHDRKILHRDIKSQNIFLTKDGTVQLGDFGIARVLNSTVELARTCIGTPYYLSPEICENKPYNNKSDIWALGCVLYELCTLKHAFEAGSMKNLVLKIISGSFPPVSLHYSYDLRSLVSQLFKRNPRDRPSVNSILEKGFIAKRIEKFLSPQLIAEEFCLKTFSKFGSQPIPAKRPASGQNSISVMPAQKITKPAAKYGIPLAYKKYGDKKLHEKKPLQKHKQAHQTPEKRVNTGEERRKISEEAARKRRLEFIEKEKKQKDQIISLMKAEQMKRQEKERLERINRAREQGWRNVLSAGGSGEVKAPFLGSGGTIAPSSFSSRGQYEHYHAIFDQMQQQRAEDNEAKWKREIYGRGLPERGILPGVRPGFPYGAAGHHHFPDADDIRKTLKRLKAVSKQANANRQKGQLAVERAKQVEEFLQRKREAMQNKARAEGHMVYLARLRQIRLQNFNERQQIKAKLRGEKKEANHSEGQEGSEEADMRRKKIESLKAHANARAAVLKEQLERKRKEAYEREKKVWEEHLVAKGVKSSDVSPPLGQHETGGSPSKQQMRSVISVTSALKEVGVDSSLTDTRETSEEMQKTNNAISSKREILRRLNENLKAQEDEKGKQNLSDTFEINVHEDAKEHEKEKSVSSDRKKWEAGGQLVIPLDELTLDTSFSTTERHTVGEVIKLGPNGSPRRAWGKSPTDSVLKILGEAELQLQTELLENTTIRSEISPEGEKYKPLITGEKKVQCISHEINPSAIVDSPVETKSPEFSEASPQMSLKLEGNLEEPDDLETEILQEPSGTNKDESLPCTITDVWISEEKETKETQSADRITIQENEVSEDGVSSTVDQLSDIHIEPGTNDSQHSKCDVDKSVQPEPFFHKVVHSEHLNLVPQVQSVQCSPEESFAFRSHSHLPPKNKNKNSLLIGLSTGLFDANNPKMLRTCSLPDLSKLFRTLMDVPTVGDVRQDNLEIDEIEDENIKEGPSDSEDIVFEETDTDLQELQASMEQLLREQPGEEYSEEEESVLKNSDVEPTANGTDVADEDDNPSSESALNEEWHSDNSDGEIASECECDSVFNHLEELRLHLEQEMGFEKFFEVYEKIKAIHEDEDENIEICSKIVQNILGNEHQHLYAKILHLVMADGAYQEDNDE
Sequence of UniProt P42685 (whole entry, looked up): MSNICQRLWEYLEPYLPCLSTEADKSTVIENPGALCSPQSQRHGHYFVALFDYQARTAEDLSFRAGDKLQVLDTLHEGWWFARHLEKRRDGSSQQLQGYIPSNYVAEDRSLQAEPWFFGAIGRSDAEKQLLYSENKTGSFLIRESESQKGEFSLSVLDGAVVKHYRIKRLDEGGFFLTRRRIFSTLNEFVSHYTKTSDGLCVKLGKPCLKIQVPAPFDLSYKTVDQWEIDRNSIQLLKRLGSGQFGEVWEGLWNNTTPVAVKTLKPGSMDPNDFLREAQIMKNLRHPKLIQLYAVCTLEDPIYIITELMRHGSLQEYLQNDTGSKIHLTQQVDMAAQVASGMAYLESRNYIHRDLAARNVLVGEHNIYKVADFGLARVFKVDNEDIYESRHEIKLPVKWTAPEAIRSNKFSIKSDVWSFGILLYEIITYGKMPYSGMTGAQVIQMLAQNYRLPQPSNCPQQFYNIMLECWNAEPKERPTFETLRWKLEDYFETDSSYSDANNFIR
Sequence of UniProt P35348 (whole entry, looked up): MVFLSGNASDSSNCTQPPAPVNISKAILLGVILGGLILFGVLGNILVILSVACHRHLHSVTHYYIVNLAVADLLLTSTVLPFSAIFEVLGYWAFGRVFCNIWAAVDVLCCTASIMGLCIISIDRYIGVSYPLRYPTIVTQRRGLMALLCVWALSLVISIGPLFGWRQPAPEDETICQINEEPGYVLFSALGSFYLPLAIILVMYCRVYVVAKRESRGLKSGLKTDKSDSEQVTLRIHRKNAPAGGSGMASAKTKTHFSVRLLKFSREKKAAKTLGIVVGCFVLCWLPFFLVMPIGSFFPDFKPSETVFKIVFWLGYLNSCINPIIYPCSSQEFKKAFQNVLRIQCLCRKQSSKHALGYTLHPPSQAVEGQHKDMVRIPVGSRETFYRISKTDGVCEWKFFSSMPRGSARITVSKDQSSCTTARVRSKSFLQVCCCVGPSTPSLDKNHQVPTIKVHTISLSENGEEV
Sequence of UniProt P10398 (whole entry, looked up): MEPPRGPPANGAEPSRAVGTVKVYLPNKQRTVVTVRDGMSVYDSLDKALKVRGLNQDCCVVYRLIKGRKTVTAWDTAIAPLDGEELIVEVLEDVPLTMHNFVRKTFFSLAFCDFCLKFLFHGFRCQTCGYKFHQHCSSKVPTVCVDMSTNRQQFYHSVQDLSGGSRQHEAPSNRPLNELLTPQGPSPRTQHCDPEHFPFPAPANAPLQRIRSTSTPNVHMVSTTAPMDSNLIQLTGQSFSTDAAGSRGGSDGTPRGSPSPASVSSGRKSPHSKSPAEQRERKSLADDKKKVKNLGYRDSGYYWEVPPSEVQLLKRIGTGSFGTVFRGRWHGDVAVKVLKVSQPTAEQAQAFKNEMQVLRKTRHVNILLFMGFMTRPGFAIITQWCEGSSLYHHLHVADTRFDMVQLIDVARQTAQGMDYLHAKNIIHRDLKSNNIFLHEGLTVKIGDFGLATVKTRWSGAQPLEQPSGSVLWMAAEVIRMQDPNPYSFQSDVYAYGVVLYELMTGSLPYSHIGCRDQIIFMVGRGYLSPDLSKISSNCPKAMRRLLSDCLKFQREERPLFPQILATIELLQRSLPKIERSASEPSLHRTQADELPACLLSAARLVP

Block 1
Species: human
Sample: microsomes or S9
Concentration: 2 µM
Time: 0.5 h
| SMILES | remaining compound [%] |
| --- | --- |
| Cc1cc(C(C)(C)c2cc(C)c(N)c(C)c2)cc(C)c1N | 57.8 |
| COc1ccc(-c2n[nH]c(-c3ccccn3)n2)cc1 | 44.3 |
| CC(Cc1ccsc1)NC(=O)c1cccc2c1OC(C)C(=O)N2 (stereo not shown) | 11 |

Block 2
SMILES: CS(=O)(=O)c1cc(C2(NC(=O)c3cncc4c3cnn4-c3ccc(F)cc3)CC2)ccn1
Observed: cell-free assay
Concentration: 10 µM
| target | inhibition |
| --- | --- |
| HRH4 (Homo sapiens, UniProt Q9H3N8) | 1.36% |
| ADRB3 (Homo sapiens, UniProt P13945) | -5.91% |
| ADRA1A (Homo sapiens, UniProt P35348) | -7.71% |
| HRH2 (Homo sapiens, UniProt P25021) | 3.34% |

Block 3
Target: Ras GTPase-activating protein-binding protein 1, full length (G3BP1, Homo sapiens, UniProt Q13283)
Sequence of UniProt Q13283 (whole entry, looked up): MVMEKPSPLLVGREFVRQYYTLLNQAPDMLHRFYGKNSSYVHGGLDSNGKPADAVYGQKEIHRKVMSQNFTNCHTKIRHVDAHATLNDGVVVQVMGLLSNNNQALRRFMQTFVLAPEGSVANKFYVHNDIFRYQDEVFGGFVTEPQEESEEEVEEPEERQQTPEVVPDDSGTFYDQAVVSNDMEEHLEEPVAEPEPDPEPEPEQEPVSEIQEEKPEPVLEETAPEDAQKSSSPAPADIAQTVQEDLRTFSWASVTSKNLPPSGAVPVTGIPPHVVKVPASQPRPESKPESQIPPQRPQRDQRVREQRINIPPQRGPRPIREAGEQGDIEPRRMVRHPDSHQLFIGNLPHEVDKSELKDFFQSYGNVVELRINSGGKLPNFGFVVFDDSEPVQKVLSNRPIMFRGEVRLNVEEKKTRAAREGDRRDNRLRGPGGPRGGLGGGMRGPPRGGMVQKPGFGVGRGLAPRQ
Method: RNA Bind-n-Seq
Form: RNA
Sample: in vitro
Concentration: 200 nM
Setting: whole 134-nt RNA, ends assumed
Added: 150 mM LiCl
Relative to: input library
Reading: higher = stronger binding
Library: 7-deaza-guanosine replaces G
All sequences stand within: GGGAGUUCUACAGUCCGACGAUC … UGGAAUUCUCGGGUGUCAAGG
| Sequence | log2 enrichment |
| --- | --- |
| GUCCUGUGCUACACAUCGUAUGUACCGAAUCGGGAAAGGGUUUUUGGGUUUUUUUGGGAAAGUAUUAUGUUACGCCGUUCGGAUCUGCAC | -1.26 |
| GUCCUGUGCUACACAUCGUAUGUACCGAAUCGGGGCCCCGGGGCCCCGGGCCCCGGGGAAAGUAUUAUGUUACGCCGUUCGGAUCUGCAC | -0.563 |
| CAAGUCCUGUGCUACACAUCGUAUGUACCGAAUCGGUUUUUUUGGUGGUUUUUGGAAAGUAUUAUGUUACGCCGUUCGGAUCUGCACUUC | -0.426 |
| UGGCCCUGGUGGCAUGCGGGGAGGAAGAGGUGGCCUCAUGGAUCGUAGUGGUCCCGGUGGAAUGUUCAGAGGUGGCCGUGGUGGAGACAG | 0.675 |
| GCAGGAAGUAAAAACAAAUGGAAAUGCUUCGUAUAGUGGCAGGGGUGGGGGUUGCUAAGGAAAGGGUGGGAUGGGAGUGGGUAAAGAGUU | 0.125 |
| UGGCCCUGGUGGCAUGCGGGGAGGAAGAGGUGGCCUCAUGGAUCGUGGUGGUCCCGGUGGAAUGUUCAAAGGUGGCCGUGGUGGAGACAG | -0.146 |
| UUCUUACAUGUGUAAUCUUCUUCUCCUAGGGCGGCAGAACUCAUGACAAGAACAAGCUCUGUGGUGACACUGGAAGUAGCAAAGCAGGGU | -0.19 |
| CACAGACAACACGCACCCACACAGACACAGAGGGAAGGGGUUGGGAUGGGGACAGGGUGCACAGCAGGGCGGGGUAGGACACCAGCCCCU | -0.0106 |

Block 4
Compound: c1cc(-c2cnn3cc(-c4ccc(OCCN5CCCCC5)cc4)cnc23)ccn1
Observed: enzyme activity
Mode: inhibitor
Concentration: 0.5 µM
Relative to: control
| target | remaining activity [%] |
| --- | --- |
| NEK1 (Homo sapiens, UniProt Q96PY6) | 88.9 |
| ARAF (Homo sapiens, UniProt P10398) | 55.6 |
| MST1R (Homo sapiens, UniProt Q04912) | 102 |
| MAPKAPK2 (Homo sapiens, UniProt P49137) | 86.6 |
| EPHA3 (Homo sapiens, UniProt P29320) | 55.7 |
| ACVR1B (Homo sapiens, UniProt P36896) | 112 |
| MERTK (Homo sapiens, UniProt Q12866) | 82.2 |
| TAOK2 (Homo sapiens, UniProt Q9UL54) | 90.3 |
| WEE1 (Homo sapiens, UniProt P30291) | 75.4 |
| FRK (Homo sapiens, UniProt P42685) | 66.5 |
| FGFR3 (Homo sapiens, UniProt P22607) | 70.9 |
| FGFR1 (Homo sapiens, UniProt P11362) | 59.9 |
| MAPK3 (Homo sapiens, UniProt P27361) | 110 |

Block 5
Cell line: mouse MPNST tumor cells
Method: high-content immunofluorescence imaging
Measured: nuclear SOX9
Concentration: 10 µM
Time: 12 h
Setting: mean of 2 replicates
Relative to: DMSO control
Reading: higher = more nuclear SOX9
| Compound | nuclear SOX9 intensity |
| --- | --- |
| CN1CCCN=C1/C=C/c1cccc(O)c1 | 91.7 % of DMSO |
| O=C(NC1CCC1)c1ccc(C#Cc2cccc(F)c2)nc1 | 89.6 % of DMSO |
| CCN1CCN(C(=O)N[C@@H](C(=O)N[C@@H]2C(=O)N3[C@@H]2SC(C)(C)[C@@H]3C(=O)O)c2ccccc2)C(=O)C1=O | 93.7 % of DMSO |
